Measured values collected from several papers.
Protocols differ between the studies behind these lines. Numbers after ± are the reported error.

SMILES	test	system	conditions	endpoint	value
O=C1NC2(CC2)COc2ncc(F)cc2[C@H]2COCCN2c2ccn3ncc1c3n2		Sprague-Dawley rat, female	oral, 5 mg/kg/day, end of treatment, 4-week repeated-dose toxicity	body weight	353 ± 22.6 g
Nc1cnc(Cl)cc1NC(=O)Nc1cc(C(F)F)ns1	MALDI MSI	NSG mouse, non-tumor bearing, brain	intraperitoneal, dose not given, 1 h	concentration	1300 ± 200 nM
N=C(N)NCCC[C@@H](NC(=O)[C@H](N)Cc1c[nH]c2ccccc12)C(=O)N[C@H](CCCCN)C(=O)N[C@H](Cc1c[nH]c2ccccc12)C(=O)N[C@H](CCCNC(=N)N)C(=O)N[C@H](CCCCN)C(=O)N[C@H](Cc1c[nH]c2ccccc12)C(=O)N[C@H](CCCNC(=N)N)C(=O)N[C@H](CCCCN)C(=O)N[C@H](Cc1c[nH]c2ccccc12)C(=O)N[C@H](CCCNC(=N)N)C(=O)N[C@H](CCCCN)C(N)=O		mouse, serum	30 mg/kg	NGAL level	44.8 ng/mL
Cc1ccc(OCC(=O)N(Cc2cccs2)c2ccn[nH]2)cc1	micronucleus	CD-1 mouse Crl:CD-1(ICR), male, bone marrow	oral, 1500 mg/kg/day, 3 days	PCE to total erythrocyte ratio	0.63 ± 0.06
CC[C@H](C)[C@H](NC(=O)[C@H](CCCCN)NC(=O)CNC(=O)[C@H](CC(C)C)NC(=O)[C@H](Cc1ccccc1)NC(=O)[C@H](CCCCN)NC(=O)[C@H](CO)NC(=O)[C@H](Cc1ccccc1)NC(=O)[C@H](Cc1c[nH]c2ccccc12)NC(=O)[C@H](CCC(N)=O)NC(=O)[C@@H](NC(=O)[C@H](Cc1ccccc1)NC(=O)CCCCCNC(=O)CN1CCN(CC(=O)O)CCN(CC(=O)O)CCN(CC(=O)O)CC1)C(C)C)C(=O)N[C@@H](CCC(=O)O)C(=O)N1CCC[C@H]1C(=O)N[C@@H](CC(=O)O)C(=O)N[C@H](C(=O)N[C@@H](CO)C(=O)N[C@@H](CCC(N)=O)C(=O)N[C@H](C(=O)N[C@@H](CCC(N)=O)C(=O)N[C@@H](CC(=O)O)C(=O)N1CCC[C@H]1C(=O)N[C@@H](CC(N)=O)C(=O)N[C@@H](CC(=O)O)C(=O)N[C@@H](CCC(N)=O)C(=O)N[C@@H](Cc1ccc(O)cc1)C(=O)N[C@@H](CCC(=O)O)C(=O)N1CCC[C@H]1C(=O)N[C@@H](Cc1ccccc1)C(=O)O)C(C)C)C(C)C [copper-64 labelled]		C57BL/6 male mouse, tumour-naive, thymus	2 h	tissue uptake	2.2 ± 0.1 %ID/g
COc1ccc(CNc2ccc3c(c2)S(=O)(=O)C=C3)cc1		male C57BL/6 mice, blood	intraperitoneal, 20 mg/kg, day 8, group average	mean corpuscular haemoglobin	15.2 pg
N#[11C]c1ccc(-c2csc(NN=C3CCCC3)n2)cc1		C57BL/6 mice, male, spleen	intravenous, 3 MBq, 60 min	radioactivity uptake	1.67 ± 0.65 %ID/g
CCCCCCCCCCCCCCCC(=O)NCCCC[C@H](NC(=O)[C@H](CCC(=O)O)NC(=O)[C@H](Cc1ccc(O)cc1)NC(=O)[C@H](CCC(=O)O)NC(=O)COCC(=O)NCCCOCCOCCOCCCNC(=O)[C@H](Cc1ccccc1)NC(=O)[C@H](CC(N)=O)NC(=O)[C@H](Cc1c[nH]cn1)NC(=O)[C@@H](NC(=O)[C@H](CC(=O)O)NC(=O)[C@H](CCC(N)=O)NC(=O)[C@H](CC(C)C)NC(=O)[C@H](CCCCN)NC(=O)[C@H](CCCCN)NC(=O)[C@H](CCCNC(=N)N)NC(=O)[C@H](CC(C)C)NC(=O)[C@H](Cc1c[nH]c2ccccc12)NC(=O)[C@H](CCC(=O)O)NC(=O)[C@@H](NC(=O)[C@H](CCCNC(=N)N)NC(=O)[C@H](CCC(=O)O)NC(=O)[C@H](CCSC)NC(=O)[C@H](CO)NC(=O)[C@H](CC(N)=O)NC(=O)[C@H](CC(C)C)NC(=O)[C@H](Cc1c[nH]cn1)NC(=O)[C@H](CCCCN)NC(=O)CNC(=O)[C@H](CC(C)C)NC(=O)[C@H](CC(N)=O)NC(=O)[C@H](Cc1c[nH]cn1)NC(=O)[C@H](CCSC)NC(=O)[C@H](CC(C)C)NC(=O)[C@H](CCC(N)=O)NC(=O)[C@@H](NC(=O)[C@H](CCC(=O)O)NC(=O)[C@H](CO)NC(=O)[C@@H](NC(=O)[C@@H](N)CO)C(C)C)[C@@H](C)CC)C(C)C)C(C)C)C(=O)N[C@@H](CCC(=O)O)C(=O)N[C@@H](Cc1ccc(O)cc1)C(=O)N[C@@H](CCC(=O)O)C(N)=O	ELISA	female CD-1 mice, blood plasma	subcutaneous, 10 nmol/kg, 2 h	plasma concentration	25.5 nM
CC[C@H](C)[C@H](NC(=O)[C@H](CC(C)C)NC(=O)CNC(=O)[C@H](Cc1c[nH]cn1)NC(=O)[C@@H](NC(=O)[C@H](Cc1c[nH]c2ccccc12)NC(=O)[C@H](CCCCN)NC(=O)CNC(=O)[C@@H](NC(=O)[C@H](Cc1c[nH]cn1)NC(=O)[C@H](Cc1c[nH]cn1)NC(=O)[C@@H](NC(=O)CNC(=O)[C@H](Cc1c[nH]cn1)NC(=O)[C@H](Cc1ccccc1)NC(=O)[C@H](CC(C)C)NC(=O)[C@H](CC(C)C)NC(=O)CNC(=O)[C@H](CC(C)C)NC(=O)[C@@H](N)Cc1ccccc1)C(C)C)C(C)C)[C@@H](C)CC)C(=O)N[C@@H](Cc1c[nH]cn1)C(=O)NCC(=O)N[C@@H](Cc1c[nH]cn1)C(=O)N[C@@H](Cc1c[nH]cn1)C(N)=O		zebrafish embryos 28 hpf, E3 medium	1 h	acute toxic concentration	5 µM
CCN(CCCCOc1ccc(CCC(=O)N2CCC(Cc3ccccc3)CC2)cc1OC)Cc1ccccc1		Sprague-Dawley rats, both sexes, faeces	oral gavage, 25 mg/kg, 0 to 48 h	excreted amount	87500 ± 3240 ng
CC1(C)C(=O)N(c2ccc(C#N)c(C(F)(F)F)c2)C(=S)N1c1ccc(C(=O)O)c(F)c1		human, male, plasma	oral, 40 mg, single dose, fasting	AUC(0-t)	10500 ± 2530 ng·h/mL
CC(C)C[C@H](NC(=O)[C@H](Cc1ccccc1)NC(=O)CNC(=O)CNC(=O)[C@@H](N)Cc1ccc(O)cc1)C(=O)N[C@@H](CSCB(O)O)C(N)=O	RP-HPLC	PBS	concentration not given, 24 h, pH 7.4, with: NADH 100 µM	peptide remaining intact	49%

A few entries again:
SMILES	test	system	conditions	endpoint	value
CC[C@H](C)[C@H](NC(=O)[C@H](CC(C)C)NC(=O)CNC(=O)[C@H](Cc1c[nH]cn1)NC(=O)[C@@H](NC(=O)[C@H](Cc1c[nH]c2ccccc12)NC(=O)[C@H](CCCCN)NC(=O)CNC(=O)[C@@H](NC(=O)[C@H](Cc1c[nH]cn1)NC(=O)[C@H](Cc1c[nH]cn1)NC(=O)[C@@H](NC(=O)CNC(=O)[C@H](Cc1c[nH]cn1)NC(=O)[C@H](Cc1ccccc1)NC(=O)[C@H](CC(C)C)NC(=O)[C@H](CC(C)C)NC(=O)CNC(=O)[C@H](CC(C)C)NC(=O)[C@@H](N)Cc1ccccc1)C(C)C)C(C)C)[C@@H](C)CC)C(=O)N[C@@H](Cc1c[nH]cn1)C(=O)NCC(=O)N[C@@H](Cc1c[nH]cn1)C(=O)N[C@@H](Cc1c[nH]cn1)C(N)=O		zebrafish embryos 28 hpf, E3 medium	1 h	acute toxic concentration	5 µM
